Measurements collected from several papers.
Protocols differ between the studies behind these lines. Values joined by “and” are separate records of one study, mostly repeats; a detail may differ. Numbers after ± are the reported error.
MGLL: Monoglyceride lipase (MGLL, Homo sapiens, UniProt Q99685)
Chain of UniProt Q99685 (whole entry, looked up): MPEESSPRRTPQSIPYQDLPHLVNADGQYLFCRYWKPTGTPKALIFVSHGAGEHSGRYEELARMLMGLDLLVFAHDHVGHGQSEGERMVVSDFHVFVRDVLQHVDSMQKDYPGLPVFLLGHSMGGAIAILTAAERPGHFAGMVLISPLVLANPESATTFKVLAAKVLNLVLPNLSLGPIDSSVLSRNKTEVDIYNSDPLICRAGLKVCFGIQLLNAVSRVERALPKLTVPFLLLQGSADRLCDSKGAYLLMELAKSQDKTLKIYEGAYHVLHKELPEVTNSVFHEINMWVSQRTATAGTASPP
Tpo: Thyroid peroxidase (Tpo, Rattus norvegicus, UniProt P14650)
Chain of UniProt P14650 (whole entry, looked up): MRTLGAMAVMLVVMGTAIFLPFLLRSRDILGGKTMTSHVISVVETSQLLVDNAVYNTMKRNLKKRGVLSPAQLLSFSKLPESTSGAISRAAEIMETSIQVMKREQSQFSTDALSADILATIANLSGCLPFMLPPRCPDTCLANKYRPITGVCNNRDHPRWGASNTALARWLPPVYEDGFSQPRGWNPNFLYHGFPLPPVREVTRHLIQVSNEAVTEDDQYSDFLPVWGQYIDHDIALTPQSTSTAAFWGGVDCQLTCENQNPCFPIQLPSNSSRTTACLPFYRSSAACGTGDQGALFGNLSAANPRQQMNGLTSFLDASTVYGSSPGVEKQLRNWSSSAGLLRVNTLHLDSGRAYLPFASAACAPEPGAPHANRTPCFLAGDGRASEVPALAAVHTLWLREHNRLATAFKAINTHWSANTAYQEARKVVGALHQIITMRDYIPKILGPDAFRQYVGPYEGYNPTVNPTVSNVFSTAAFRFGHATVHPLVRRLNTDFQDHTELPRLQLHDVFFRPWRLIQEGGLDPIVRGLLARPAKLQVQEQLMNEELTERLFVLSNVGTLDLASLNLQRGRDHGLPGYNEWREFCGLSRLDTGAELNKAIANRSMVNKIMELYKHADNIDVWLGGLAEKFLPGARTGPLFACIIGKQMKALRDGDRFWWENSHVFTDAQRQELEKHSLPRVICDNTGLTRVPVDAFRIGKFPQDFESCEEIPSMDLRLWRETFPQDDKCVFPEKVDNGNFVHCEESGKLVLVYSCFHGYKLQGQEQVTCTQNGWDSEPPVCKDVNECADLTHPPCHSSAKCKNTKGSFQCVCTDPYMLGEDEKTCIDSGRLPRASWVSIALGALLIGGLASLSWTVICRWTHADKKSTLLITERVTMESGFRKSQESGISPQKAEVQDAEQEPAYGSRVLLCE
TRPM4: Transient receptor potential cation channel subfamily M member 4 (TRPM4, Homo sapiens, UniProt Q8TD43)
Chain of UniProt Q8TD43 (whole entry, looked up): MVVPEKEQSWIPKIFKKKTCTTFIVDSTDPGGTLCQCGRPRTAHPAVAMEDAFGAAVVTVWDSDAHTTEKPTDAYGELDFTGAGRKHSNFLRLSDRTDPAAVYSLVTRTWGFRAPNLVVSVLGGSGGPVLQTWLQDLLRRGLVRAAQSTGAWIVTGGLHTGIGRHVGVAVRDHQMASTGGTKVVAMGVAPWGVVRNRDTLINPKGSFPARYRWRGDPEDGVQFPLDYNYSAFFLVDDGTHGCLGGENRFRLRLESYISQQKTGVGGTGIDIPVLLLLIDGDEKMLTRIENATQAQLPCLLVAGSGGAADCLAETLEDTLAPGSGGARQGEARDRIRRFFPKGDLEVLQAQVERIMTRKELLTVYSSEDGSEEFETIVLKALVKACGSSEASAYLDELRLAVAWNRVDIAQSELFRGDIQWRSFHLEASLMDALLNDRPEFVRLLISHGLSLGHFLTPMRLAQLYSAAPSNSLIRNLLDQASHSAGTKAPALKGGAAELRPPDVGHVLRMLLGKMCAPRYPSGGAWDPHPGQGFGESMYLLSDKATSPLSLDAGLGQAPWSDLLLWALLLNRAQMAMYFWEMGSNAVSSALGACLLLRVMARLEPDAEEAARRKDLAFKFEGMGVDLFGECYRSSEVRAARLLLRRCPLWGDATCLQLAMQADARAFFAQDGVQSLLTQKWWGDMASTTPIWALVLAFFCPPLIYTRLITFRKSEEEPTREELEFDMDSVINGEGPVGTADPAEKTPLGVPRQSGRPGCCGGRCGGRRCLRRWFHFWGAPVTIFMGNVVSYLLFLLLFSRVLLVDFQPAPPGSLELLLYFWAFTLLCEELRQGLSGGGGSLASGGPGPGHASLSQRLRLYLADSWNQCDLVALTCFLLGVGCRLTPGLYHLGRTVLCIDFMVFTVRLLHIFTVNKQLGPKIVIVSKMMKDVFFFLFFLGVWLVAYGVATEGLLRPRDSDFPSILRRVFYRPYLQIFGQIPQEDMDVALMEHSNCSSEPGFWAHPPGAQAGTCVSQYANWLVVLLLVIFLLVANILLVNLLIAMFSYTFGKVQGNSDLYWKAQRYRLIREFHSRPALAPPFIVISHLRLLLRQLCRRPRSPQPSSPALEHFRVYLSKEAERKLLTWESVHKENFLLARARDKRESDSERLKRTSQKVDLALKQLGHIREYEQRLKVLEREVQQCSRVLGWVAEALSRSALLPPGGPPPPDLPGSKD
gag-pol integrase: Gag-Pol polyprotein, integrase (gag-pol, Human immunodeficiency virus 1, UniProt P12497)
Chain of UniProt P04062 (whole entry, unmodified, looked up): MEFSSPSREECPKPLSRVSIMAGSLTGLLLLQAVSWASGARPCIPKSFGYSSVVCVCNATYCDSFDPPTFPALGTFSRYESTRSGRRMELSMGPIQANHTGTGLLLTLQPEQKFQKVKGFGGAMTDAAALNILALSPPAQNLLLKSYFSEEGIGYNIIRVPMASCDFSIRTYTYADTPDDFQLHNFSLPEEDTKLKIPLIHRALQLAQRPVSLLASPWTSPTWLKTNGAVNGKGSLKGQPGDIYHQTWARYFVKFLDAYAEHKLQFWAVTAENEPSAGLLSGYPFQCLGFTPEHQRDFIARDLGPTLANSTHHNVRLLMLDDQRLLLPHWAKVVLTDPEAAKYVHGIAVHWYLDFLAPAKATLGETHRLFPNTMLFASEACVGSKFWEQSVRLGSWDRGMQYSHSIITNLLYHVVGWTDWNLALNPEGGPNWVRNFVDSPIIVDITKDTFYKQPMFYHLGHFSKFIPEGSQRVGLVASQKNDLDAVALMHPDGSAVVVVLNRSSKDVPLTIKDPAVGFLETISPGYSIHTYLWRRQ
Chain of UniProt P34913 (whole entry, looked up): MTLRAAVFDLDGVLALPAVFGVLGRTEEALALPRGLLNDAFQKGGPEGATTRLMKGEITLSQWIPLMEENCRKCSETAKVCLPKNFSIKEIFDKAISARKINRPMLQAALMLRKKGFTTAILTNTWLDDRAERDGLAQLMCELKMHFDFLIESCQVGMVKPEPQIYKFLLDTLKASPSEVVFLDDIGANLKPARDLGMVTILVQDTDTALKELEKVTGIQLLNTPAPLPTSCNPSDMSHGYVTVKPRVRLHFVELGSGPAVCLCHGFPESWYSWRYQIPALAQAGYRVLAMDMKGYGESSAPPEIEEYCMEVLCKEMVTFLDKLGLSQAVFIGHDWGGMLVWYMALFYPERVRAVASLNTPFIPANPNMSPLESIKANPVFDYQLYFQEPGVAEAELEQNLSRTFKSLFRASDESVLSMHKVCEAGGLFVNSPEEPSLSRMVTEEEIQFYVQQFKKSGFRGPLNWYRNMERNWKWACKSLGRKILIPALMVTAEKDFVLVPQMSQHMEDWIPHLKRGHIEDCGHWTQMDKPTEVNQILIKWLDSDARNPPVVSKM
Chain of UniProt O60331 (whole entry, looked up): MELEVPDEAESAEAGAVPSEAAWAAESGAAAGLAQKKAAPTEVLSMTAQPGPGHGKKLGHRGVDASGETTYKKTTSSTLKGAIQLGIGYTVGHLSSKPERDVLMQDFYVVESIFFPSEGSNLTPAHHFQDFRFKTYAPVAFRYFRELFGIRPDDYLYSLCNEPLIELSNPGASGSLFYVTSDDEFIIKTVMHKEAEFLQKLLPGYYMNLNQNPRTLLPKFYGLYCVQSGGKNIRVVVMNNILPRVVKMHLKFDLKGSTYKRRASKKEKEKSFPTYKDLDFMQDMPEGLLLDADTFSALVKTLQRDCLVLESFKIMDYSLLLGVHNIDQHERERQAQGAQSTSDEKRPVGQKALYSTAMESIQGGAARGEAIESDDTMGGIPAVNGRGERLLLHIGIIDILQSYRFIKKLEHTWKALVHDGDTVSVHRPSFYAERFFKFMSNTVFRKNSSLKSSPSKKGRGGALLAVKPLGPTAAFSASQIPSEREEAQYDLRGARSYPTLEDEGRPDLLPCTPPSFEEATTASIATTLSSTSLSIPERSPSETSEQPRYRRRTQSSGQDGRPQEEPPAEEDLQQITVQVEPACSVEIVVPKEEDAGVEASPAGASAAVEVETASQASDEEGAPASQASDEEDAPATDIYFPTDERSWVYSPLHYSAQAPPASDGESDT
Chain of UniProt P28074 (whole entry, looked up): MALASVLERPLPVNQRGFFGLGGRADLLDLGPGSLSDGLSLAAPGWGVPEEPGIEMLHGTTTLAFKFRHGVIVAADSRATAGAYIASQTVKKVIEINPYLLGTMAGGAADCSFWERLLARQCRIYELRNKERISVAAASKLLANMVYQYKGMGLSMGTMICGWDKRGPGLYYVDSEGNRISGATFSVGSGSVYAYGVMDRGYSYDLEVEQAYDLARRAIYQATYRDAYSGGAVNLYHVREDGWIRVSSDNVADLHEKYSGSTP
Chain of UniProt P0A9P4 (whole entry, looked up): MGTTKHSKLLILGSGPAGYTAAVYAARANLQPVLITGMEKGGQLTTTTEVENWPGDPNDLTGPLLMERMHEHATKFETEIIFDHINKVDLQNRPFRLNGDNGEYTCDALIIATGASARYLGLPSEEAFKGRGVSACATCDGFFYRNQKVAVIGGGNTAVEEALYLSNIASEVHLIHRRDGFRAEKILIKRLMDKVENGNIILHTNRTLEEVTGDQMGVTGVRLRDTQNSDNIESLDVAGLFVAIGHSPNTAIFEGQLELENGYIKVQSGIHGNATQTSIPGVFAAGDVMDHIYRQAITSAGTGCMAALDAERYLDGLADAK
Chain of UniProt P20618 (whole entry, looked up): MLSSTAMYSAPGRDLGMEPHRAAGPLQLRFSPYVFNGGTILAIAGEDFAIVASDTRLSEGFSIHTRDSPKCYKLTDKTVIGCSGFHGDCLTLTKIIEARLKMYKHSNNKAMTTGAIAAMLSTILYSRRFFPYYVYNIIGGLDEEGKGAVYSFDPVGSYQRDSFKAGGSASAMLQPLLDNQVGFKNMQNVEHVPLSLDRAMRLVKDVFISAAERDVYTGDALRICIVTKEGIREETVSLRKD

Substance	target	test	system	setting	IC50
O=C(OC(C(F)(F)F)C(F)(F)F)N1CCN(CCn2ccc3ccc(F)cc32)CC1	MGLL	enzyme activity, inhibitor	–	–	0.83 µM
CCn1[c](=[Au-2]([Cl])([Cl])[Cl])n(CC)c2ccccc21	trxB (Escherichia coli, UniProt P0A9P4)	enzyme activity, inhibitor, absorbance	–	with preincubation	0.27 µM
CC(=O)N1CCN(C(=O)C(C)(C)NC(=O)Nc2ccc(C)cc2)CC1	Endoplasmic reticulum aminopeptidase 1, open conformation (ERAP1, Homo sapiens, UniProt Q9NZ08)	enzyme activity, inhibitor, fluorogenic	–	partial inhibition, together with: L-AMC substrate	126 µM
CCc1oc2ccccc2c1C(=O)c1ccc(O)cc1	Cytochrome P450 2E1 (CYP2E1, Homo sapiens, UniProt P05181)	p-nitrophenol hydroxylation, inhibitor	baculosomes	10 min, with additive, together with: p-nitrophenol 100 µM	71 µM
COc1cc(CCC(=O)CC(=O)CCc2ccc(O)c(OC)c2)ccc1O	HSD3B2 (Homo sapiens, UniProt P26439)	enzyme activity, inhibitor	KGN cell homogenate	lower bound from 100 µM screen, together with: pregnenolone	≥ 100 µM
O=C(O)c1cc(O)c(O)c(O)c1	Tpo	tyrosine iodination, LC-MS/MS	rat thyroid microsomes	together with: KI 300 µM, H2O2 40 µM	0.96 µM
COc1ccc2c(CC(=O)NCCCC[C@H](N)C(=O)N[C@@H](CCC(=O)O)C(=O)N[C@@H](Cc3ccc(CS(=O)(=O)O)cc3)C(=O)N[C@@H](CCC(=O)O)C(=O)N[C@@H](Cc3ccc(CS(=O)(=O)O)cc3)C(=O)N[C@@H](CC(C)C)C(=O)N[C@@H](CC(=O)O)C(=O)N[C@@H](Cc3ccc(CS(=O)(=O)O)cc3)C(=O)N[C@@H](CC(=O)O)C(=O)N[C@@H](Cc3ccccc3)C(=O)N[C@@H](CC(C)C)C(=O)N3CCC[C@H]3C(=O)N[C@@H](CCC(=O)O)C(=O)N[C@H](C(=O)N[C@@H](CCC(=O)O)C(=O)N3CCC[C@H]3C(=O)N[C@@H](CC(C)C)C(=O)O)[C@@H](C)O[C@H]3O[C@H](CO[C@@H]4O[C@H](CO)[C@@H](O[C@@H]5O[C@H](CO)[C@H](O)[C@H](O[C@]6(C(=O)O)C[C@H](O)[C@@H](NC(C)=O)[C@H]([C@H](O)[C@H](O)CO)O6)[C@H]5O)[C@H](O[C@@H]5O[C@@H](C)[C@@H](O)[C@@H](O)[C@@H]5O)[C@H]4NC(C)=O)[C@H](O)[C@H](O[C@@H]4O[C@H](CO)[C@H](O)[C@H](O)[C@H]4O)[C@H]3NC(C)=O)cc(=O)oc2c1	P-selectin (SELP, Homo sapiens, UniProt P16109)	chimera binding to monocytes, inhibitor, flow cytometry	human monocytes	together with: SELP Fc chimera 2 µg/mL	~20 µM
C=CCc1ccc(O)c(-c2cc(CC=C)ccc2O)c1	mitochondrial complex I	complex I-dependent oxygen consumption rate, inhibitor	A-375	24 h	62 µM
O=P(O)(O)Oc1ccc(OCCOc2ccc(OP(=O)(O)O)c(OP(=O)(O)O)c2)cc1OP(=O)(O)O	Inositol polyphosphate-5-phosphatase A (Homo sapiens, UniProt Q14642)	enzyme activity, inhibitor	–	together with: Ins(1,4,5)P3 1.0 µM	> 10 µM
C#C[C@]1(OC(C)=O)CC[C@H]2[C@@H]3CCC4=CC(=NO)CC[C@@H]4[C@H]3CC[C@@]21CC (mixture of isomers)	Organic solute transporter subunit alpha, with OSTβ (SLC51A, Homo sapiens, UniProt Q86UW1)	DHEAS uptake, inhibitor	Flp-In 293 overexpressing OSTα/β	30 s, together with: DHEAS 4 µM	> 200 µM
O=C(COc1cccc(-c2ccccc2)c1)Nc1cc(Cl)ccc1C(=O)O	TRPM4	ion flux, inhibitor, fluorescence	–	–	2.6 µM
COc1ccccc1-c1cn(CC2CC2)c2ncnc(N)c12	CDPK1 (Plasmodium falciparum, UniProt P62344)	enzyme activity, inhibitor	–	–	> 2 µM
O=C1C=C2CC3(O)COc4c(ccc(O)c4O)C3=C2C=C1O (stereo not shown)	firefly luciferase	luminescence signal, luminescence counter-screen	cell-free, after ADP processing	up to 77 µM, together with: ADP 1.25 µM, ATP 11.25 µM	no inhibition
O=C(Nc1cccc(-c2nnc(C3CCCCC3)o2)c1)C1CCCC1	α-amylase	enzyme activity, inhibitor	–	–	5.25 µM
O=C(COc1ccc(Br)cc1Br)Nc1cc(Cl)ccc1C(=O)O	TRPM4	ion flux, inhibitor, fluorescence	–	–	1.8 µM
O=c1c2ccccc2nc2sc(Nc3ccc4c(c3)CCC4)nn12	TDP1 (Homo sapiens, UniProt Q9NUW8)	enzyme activity, inhibitor	–	pH 7.4	3.2 µM
[N-]=[N+]=NCCCCNC(=O)[C@@H]1[C@H]2[C@H](O)[C@@H](O)[C@H](O)[C@@H](CO)[C@@H]12	GBA1 (Homo sapiens, UniProt P04062, R534H)	enzyme activity, inhibitor	–	pH 5.2	99 µM and ~100 µM
CC[C@H](C)[C@H](NC(=O)[C@H](Cc1ccc(O)cc1)NC(=O)[C@@H](NC(=O)[C@H](CCCNC(=N)N)NC(=O)[C@@H](N)CC(=O)O)C(C)C)C(=O)N[C@@H](Cc1c[nH]cn1)C(=O)N1CCC[C@H]1C(=O)N[C@@H](Cc1ccccc1)C(=O)N[C@@H](Cc1c[nH]cn1)C(=O)O	Neurolysin, mitochondrial (Rattus norvegicus, UniProt P42676)	radioligand binding	rat, brain membranes	–	7 µM
CC(C)NCc1ccc(C[C@@H]2NC(=O)[C@H](N(C)C(=O)c3ccc4ccccc4c3)NC(=O)[C@H](Cc3ccccc3)NC(=O)[C@H](NC(=O)[C@@H](N)Cc3ccc(O)cc3)CSSC[C@@H](C(=O)N[C@@H](Cc3ccc4ccccc4c3)C(N)=O)NC(=O)[C@H](Cc3ccccc3)NC2=O)cc1	SSTR1 (Homo sapiens, UniProt P30872)	ligand displacement, radioligand	–	cell membranes	0.365 µM
C=CC(C)(C)c1cc(C(=O)c2c(-c3cc(-c4cc5cc(C(C)(C)C=C)c(O)cc5oc4=O)c(O)cc3O)oc3cc(O)ccc23)c(O)cc1O	RELA (Homo sapiens, UniProt Q04206)	NF-κB activity, inhibitor	–	–	0.006 µM

Substance	target	test	system	setting	IC50
O=C(O)/C(O)=C/C(=O)c1cn(Cc2ccc(F)cc2)c2ccccc2c1=O	gag-pol integrase	strand transfer, inhibitor, gel-based	–	together with: Mg2+	0.16 µM
CC(C)(C)OC(=O)N[C@@H](Cc1ccc(OCc2ccccc2)cc1)C(=O)O	Bifunctional epoxide hydrolase 2, N-terminal phosphatase domain (EPHX2, Homo sapiens, UniProt P34913)	N-terminal phosphatase activity	human	10 min preincubation, together with: AttoPhos 15 µM	1.5 µM
CC(C)C[C@H](NC(=O)[C@@H](NC(=O)N[C@H](C(=O)OC(C)(C)C)C(C)C)C(C)C)C(=O)N[C@@H](CC(C)C)C(=O)[C@@]1(C)CO1	rabbit 26S proteasome β1	caspase-like activity, inhibitor, fluorogenic substrate	purified proteasome	30 min, 37 °C, together with: fluorogenic caspase-like substrate	> 0.3 µM
O=C(CCCCCCNC(=O)[C@H]1CCCN(C(=O)c2ccc(NC(=O)Nc3ccc(OC(F)(F)F)c(Cl)c3)c(F)c2)C1)NO	EPHX2 (Homo sapiens, UniProt P34913)	enzyme activity, inhibitor, fluorescence	–	–	0.0003 µM
O=c1cc(-c2ccc(O)c(O)c2)oc2cc(O)cc(O)c12	UGT1A4 (Homo sapiens, UniProt P22310)	glucuronidation	pooled human liver microsomes	no preincubation	41 µM
NC(=O)c1nnn(Cc2cc(Cl)c(C(=O)c3ccc(Cl)cc3)c(Cl)c2)c1N	CACNA1I (Homo sapiens, UniProt Q9P0X4)	inhibitor, FLIPR calcium	HEK293 with GCaMP6s-CAAX, Kir2.3	together with: KCl at EC90	6.8 µM
Cc1nc2ccccc2n1Cc1ccc(C(=O)NO)cc1	HDAC9 (Homo sapiens, UniProt Q9UKV0)	–	–	concentration not given	0.345 µM
O=C(OC(C(F)(F)F)C(F)(F)F)N1CCC(CCn2ccc3cc(F)ccc32)CC1	MGLL	enzyme activity, inhibitor	–	–	0.38 µM
Cc1cc(C(=O)N[C@@H](CC(=O)NC(C)(C)C)C(=O)N[C@@H](C)CC(=O)NCc2cccc3ccccc23)no1	Proteasome component C5/PSMB5 (Homo sapiens, UniProt P20618+P28074)	chymotrypsin-like activity, inhibitor	–	together with: suc-LLVY-AMC	88.4 ± 5.81 µM
Tannic acid	firefly luciferase	luminescence signal, inhibitor, ADP detection luminescence	–	–	> 77 µM
NS(=O)(=O)c1ccc(N2N=C(C(F)(F)F)C[C@H]2c2ccc(F)cc2F)cc1	Prostaglandin G/H synthase 1 (Canis lupus familiaris, UniProt Q8HZR1)	TXB2 formation, inhibitor	clotting dog whole blood	1 h, 37 °C	23.9 µM
CS(=O)(=O)c1cccc(C[C@H](NC(=O)c2c(Cl)cc3c(c2Cl)CCN(C(=O)Cc2ccc4occc4c2)C3)C(=O)O)c1	Integrin alpha-L, with integrin beta-2 (ITGAL, Homo sapiens, UniProt P20701)	cell adhesion, antagonist	Jurkat	together with: ICAM-1	3.14 µM
O=C(Nc1ccc(F)cc1)Nc1cccc(-c2nnc(C3CCCCC3)o2)c1	α-amylase	enzyme activity, inhibitor	–	–	5.09 µM
CCCS(=O)(=O)Nc1cc(-c2cc(-c3ccc(N4CCNCC4)cc3)cnc2N)cc(OC)c1C	RIPK2 (Homo sapiens, UniProt O43353)	kinase activity, inhibitor, ADP-Glo	–	tested up to 10 µM	> 10 µM
OC1CCCc2c(OCc3ccccc3)cccc21 (stereo not shown)	MAOB (Homo sapiens, UniProt P27338)	enzyme activity, inhibitor, fluorescence	–	–	5.05 µM
O=C(Nc1cc(F)c(F)c(F)c1Br)c1cc(S(=O)(=O)N2CCOCC2)c(Cl)cc1Cl	LPAR2 (Homo sapiens, UniProt Q9HBW0)	Ca2+ mobilization, antagonist	MEF	together with: LPA at EC50	> 100 µM
O=C(OC(C(F)(F)F)C(F)(F)F)N1CCC(CCn2ccc3cc(Cl)ccc32)CC1	MGLL	enzyme activity, inhibitor	–	–	0.31 µM
NC(=O)c1nc(Nc2ccccc2)sc1NC(=O)C1CCCCC1	PIP5K1C (Homo sapiens, UniProt O60331)	enzyme activity, inhibitor, microfluidic mobility shift	–	together with: ATP 15 µM	0.12 µM
CCOC(=O)/C(O)=C/C(=O)c1cn(Cc2ccc(F)cc2)c2ccc(Cl)cc2c1=O	gag-pol integrase	3'-processing, inhibitor, gel-based	–	together with: Mg2+	> 333 µM
CC[C@H](c1ccc(O)cc1)[C@@H](CC)c1ccc(O)cc1	Tpo	tyrosine iodination, LC-MS/MS	rat thyroid microsomes	together with: KI 300 µM, H2O2 40 µM	5.38 µM

Some of these lines once more:
Substance	target	test	system	setting	IC50
CS(=O)(=O)c1cccc(C[C@H](NC(=O)c2c(Cl)cc3c(c2Cl)CCN(C(=O)Cc2ccc4occc4c2)C3)C(=O)O)c1	Integrin alpha-L, with integrin beta-2 (ITGAL, Homo sapiens, UniProt P20701)	cell adhesion, antagonist	Jurkat	together with: ICAM-1	3.14 µM
O=C(Nc1ccc(F)cc1)Nc1cccc(-c2nnc(C3CCCCC3)o2)c1	α-amylase	enzyme activity, inhibitor	–	–	5.09 µM
CCCS(=O)(=O)Nc1cc(-c2cc(-c3ccc(N4CCNCC4)cc3)cnc2N)cc(OC)c1C	RIPK2 (Homo sapiens, UniProt O43353)	kinase activity, inhibitor, ADP-Glo	–	tested up to 10 µM	> 10 µM
OC1CCCc2c(OCc3ccccc3)cccc21 (stereo not shown)	MAOB (Homo sapiens, UniProt P27338)	enzyme activity, inhibitor, fluorescence	–	–	5.05 µM
